Experimental data gathered from unrelated publications.
Every numbered part comes from another study and shows a few of its results, in no order. Positions count from the first letter of the parent shown.

Series 1
Target: Histone acetyltransferase KAT6A, both winged helices, GST fusion (KAT6A, Homo sapiens, UniProt Q92794, residues 1-181)
Technique: protein binding microarray
Form: double-stranded DNA, one strand shown
Medium: in vitro
Tested at: not given
Setting: 8-mer, flanks averaged, mean of 2 arrays, mostly near background
Baseline: not given
Reading: higher = stronger binding
Construct (chain): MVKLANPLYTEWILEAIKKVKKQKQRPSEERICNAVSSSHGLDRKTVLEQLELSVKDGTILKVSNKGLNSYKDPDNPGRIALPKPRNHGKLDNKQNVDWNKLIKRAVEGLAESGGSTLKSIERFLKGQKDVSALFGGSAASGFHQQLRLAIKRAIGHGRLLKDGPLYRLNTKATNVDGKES
| Oligonucleotide | E-score |
| --- | --- |
| CCCTACCG | 0.00987 |
| CACGAGTA | 0.0128 |
| ACATCGGG | 0.0349 |
| GAGGAACC | 0.00736 |
| GATCAACA | -0.123 |
| CAGGGTGC | -0.083 |
| AACCCTGG | -0.144 |
| ACCAGAAT | -0.0603 |
| TACGAGCA | -0.0505 |
| TAAGTTCA | -0.136 |
| CTATGCTC | -0.132 |
| TAGGAACA | -0.173 |
| AAGAGATC | -0.153 |
| GGCGTTCA | 0.0747 |
| GGGTAGAA | 0.0148 |
| GACTAGGA | -0.0276 |
| GGCGCACA | 0.278 |
| CACATGAC | -0.114 |
| GTGGGATA | -0.0383 |
| ACAAGTCG | -0.0872 |
| AGAACATA | 0.0167 |
| CTTGGGAC | -0.128 |
| AGAGCGGC | 0.243 |
| CTCGGCGC | 0.32 |
| CGTGGCAG | -0.0779 |

Series 2
Target: CCNB2, cyclin fold, Cln2 fusion (human)
Technique: yeast growth competition, sequencing
Medium: yeast
Setting: weak parent motif
Baseline: not given
Reading: higher = stronger binding
Parent: RB1 docking peptide (human); PKPLKKLRFDIEG
| Variant | normalised enrichment score |
| --- | --- |
| K6N | -0.246 |
| P1S | 0.163 |
| K2R | 0.324 |
| K6W | -0.0643 |
| K5T | 0.223 |
| L7K | 0.795 |
| G13E | 0.159 |
| K6M | 0.283 |
| K6P | -0.0295 |
| K5G | 0.128 |
| K2G | 0.328 |
| R8F | 0.0417 |
| F9R | 0.12 |
| F9A | 0.576 |
| L4Q | 0.345 |
| K6G | 0.0795 |
| K6E | -0.386 |

Series 3
Target: Hepatocyte nuclear factor 3-alpha (Foxa1, Mus musculus, UniProt P35582, residues 1-468, full length assumed)
Technique: EMSA with sequencing
Form: double-stranded DNA, one strand shown
Medium: in vitro
Tested at: 10 and 20 nM
Setting: whole designed probe, mean of two concentrations, ends assumed
Baseline: negative control set to 0
Reading: higher = stronger binding
| Oligonucleotide | normalised bound fraction [ratio] |
| --- | --- |
| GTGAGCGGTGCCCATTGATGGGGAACTCTTTAATTTGGATGACTCTCCTTAGAGCAGCCAAATCAGCTTCTTGCTGATAACAGTAATCAGGTTTTATACTAAAGTCCCCAGTTAGGCAGAGTAATCTGGAAGCAGCCTGTTATTGATCTGTGTTATGGAAGGTTCTTTTCCACTGAGGAGACTGAATATTTTATACTGAAACCTTTTACTTCCTGTACCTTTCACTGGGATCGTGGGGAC | -0.0497 |
| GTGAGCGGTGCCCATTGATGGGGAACATCTTCCCCCTCTTCCTTGCCCCACCAGCTCACCTTCCCGGGTTATTTGCAGATAGGAAAATAAATAAAGCCGGCATTCGTTAACCCTCTTCTGGCGCAAACTGCTGTTTGCTCTGGGTAAACTATGGTCCTTTGGCGACGCCAGGCTCCGGGAGAGCAAAGCACCGTGTCAGGGCCATGATCCGGGGTGGCCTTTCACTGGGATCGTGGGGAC | 0.342 |
| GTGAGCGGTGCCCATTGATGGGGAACAGGCACAAGGTATGAATCACTAAGAATCTAGCAGCAGCTCTAGAAGCCTCCAAAGATAATTGCACTTCCCGGGGGTGGAGTCAACAGGGGGACGTAAATATGAAAGAACAGTGGATGGCCTAAATCAGTATGTGTCACTCTTTGTAAAGAGCCACAAGTGTTTGACTAGGGAAAAAGGAAAAGAGGCGAGAGTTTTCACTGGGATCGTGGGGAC | 0.0134 |
| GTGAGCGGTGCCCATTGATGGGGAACGATATTTCGCATGCGCAATTCACAATAAGGTTCATACTCCTATGAGAATCTAATGCTGCCTCTGATCTGACAGGAGGCAGCTCAGGCAGTAGTGTAAACAATGGGGAGTGGCTGTAAATACAGATGAAGCTTTGCTCTCTCACTGCCAACTCACCTTCTGGTGTGCAGCCTGGTTCCTAACAGGCCACAGACATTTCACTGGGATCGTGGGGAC | 0.424 |
| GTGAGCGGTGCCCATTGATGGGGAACGTCCTTTTTAACACGCAGCGGTTGTGGGGACAAGGTTTCCGAGGAGGCGGGAGCGAGCGACGGCCCCCGCCTCCCACACGCCCTCTGCTTTGGTAATCTAGGAGACTCCCGCCCGCAGGCTGTAAATGAGGCACGAGCTTGGGGGCAGCGCCAGGGCGCCTGGCGTCACTGTTCAAAAAGGCCTCTTATTGGTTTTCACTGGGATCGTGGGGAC | -0.0697 |

Series 4
Molecule: PEDRESLKSACVVCLSSFKSCVFLECGHVCSCTECYRALPEPKKCPICRQAITRVIPLY (MUL1 RING domain (UniProt Q969V5))
Technique: yeast two-hybrid
Medium: yeast
Setting: mostly zero background
Baseline: not given
Reading: higher = stronger interaction
| target | lacZ reporter activity |
| --- | --- |
| UBE2M UBC core domain (UniProt P61081) | 0 |
| UBE2J1 UBC core domain (UniProt Q9Y385) | 0 |
| UBE2J2 UBC core domain (UniProt Q8N2K1) | 12700 |
| UBE2B UBC core domain (UniProt P63146) | 0 |
| UBE2I UBC core domain (UniProt P63279) | 0 |
| UBE2S UBC core domain (UniProt Q16763) | 0 |
| UBE2L3 UBC core domain (UniProt P68036) | 0 |
| UBE2Z UBC core domain (UniProt Q9H832) | 0 |
| UBE2T UBC core domain (UniProt Q9NPD8) | 0 |

Series 5
Target: ABI1, truncated, D143A, DHFR fusion (Arabidopsis thaliana)
Technique: DHFR PCA, deep sequencing
Medium: yeast
Setting: methotrexate growth selection, single substitutions
With: (+)-ABA 1.4 µM
Baseline: wild-type fitted maximum
Reading: higher = stronger binding
Parent: PYL1, truncated, DHFR fusion (Arabidopsis thaliana); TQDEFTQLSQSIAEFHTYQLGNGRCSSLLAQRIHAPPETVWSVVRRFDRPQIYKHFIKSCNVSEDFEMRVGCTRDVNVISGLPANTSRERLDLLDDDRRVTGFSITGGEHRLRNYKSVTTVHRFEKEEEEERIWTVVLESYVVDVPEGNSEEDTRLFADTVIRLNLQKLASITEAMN; partner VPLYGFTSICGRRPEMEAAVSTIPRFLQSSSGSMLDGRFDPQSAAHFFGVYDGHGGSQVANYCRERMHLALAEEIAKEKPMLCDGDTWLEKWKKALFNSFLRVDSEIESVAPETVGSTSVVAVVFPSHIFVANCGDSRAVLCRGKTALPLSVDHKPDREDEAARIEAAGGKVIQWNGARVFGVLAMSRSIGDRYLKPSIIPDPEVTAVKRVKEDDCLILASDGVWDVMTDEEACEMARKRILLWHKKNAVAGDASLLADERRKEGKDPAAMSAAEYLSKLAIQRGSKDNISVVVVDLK
| Variant | relative binding score [%] |
| --- | --- |
| Y141F | -3.12 |
| R163M | 29.9 |
| S27R | 22.4 |
| Q51D | 42 |
| A158G | -2.73 |
| D97M | 36.4 |
| R88Y | 46.8 |
| Q167V | 28.6 |
| D153A | -9.87 |
| T106H | 17.2 |
| N22M | 54.4 |
| L164F | 40.6 |
| E152I | 10.5 |
| R98F | 4.66 |
| V136F | 27.4 |
| I57Y | -7.04 |
| T173E | -13.2 |
| L29V | 63.1 |
| H110R | 8.45 |
| D96H | 5.79 |
